Published values gathered from unrelated publications.
Each numbered part is a random draw from the data of one study; scales do not carry over between parts.

Set 1 — method: protein binding microarray; form: double-stranded DNA, one strand shown; sample: in vitro; tested at: not given; baseline: not given; reading: higher = stronger binding
Target: Histone acetyltransferase KAT6A, both winged helices, GST fusion (KAT6A, Homo sapiens, UniProt Q92794, residues 1-181)
Setting: 8-mer, flanks averaged, mean of 2 arrays, mostly near background
Residues (chain): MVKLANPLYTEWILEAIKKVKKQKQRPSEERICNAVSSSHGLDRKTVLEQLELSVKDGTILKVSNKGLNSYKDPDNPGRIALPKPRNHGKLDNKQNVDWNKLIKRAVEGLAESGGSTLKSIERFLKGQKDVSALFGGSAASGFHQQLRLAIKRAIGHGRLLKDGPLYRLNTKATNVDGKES
Strand	E-score
CACCTCCG	0.023
CCTTTTTA	-0.195
ACAAAGAT	-0.0951
CGGTTGAA	0.125
TCACCTAA	-0.0453
ACTTCGTC	-8.5e-05
CTTCTTAC	-0.0234
ACGAGAAT	-0.109
CTGTCAGC	-0.0191
GATCGGAC	0.134
ACGTATTG	0.119
AGCTATCG	-0.0773
GAGGGTGC	-0.127
CGGAGGTA	-0.0726
CGAATTGA	-0.134
CAGCTACA	-0.198
CATTCCTC	-0.198
CTCCGACA	-0.0179
CACACTGA	-0.185
CAGTGTGC	-0.0483

Set 2 — method: RNA Bind-n-Seq; form: RNA; sample: in vitro; tested at: 200 nM; setting: whole 134-nt RNA, ends assumed; together with: 150 mM KCl; baseline: input library; reading: higher = stronger binding
Target: Fragile X messenger ribonucleoprotein 1, C-terminal low-complexity region (Fmr1, Mus musculus, UniProt P35922)
Shared flanks, not repeated: GGGAGUUCUACAGUCCGACGAUC … UGGAAUUCUCGGGUGUCAAGG
Strand	log2 enrichment
UUUCAGGGGAGCUCUUUGCUCAGGCCCCGGUGGAUCAGUUUCCUGGCACAGCUGUGGAGAGUGUGACGGAUUCCAGCAGGUACUUCGUGA	-1.32
ACCAUGCAGGUGGGCAUCUUUGGGAAGUGGGGCAAGGGGGGGAUAGGGAGGGGGGUAACACUUUGGGAACAGGUGGUCCCGGGUCGUUUC	0.734
UGGAUCUUGGAGGGACCAACUUCCGUGUGCUUUGGGUGAAAGUAACGGACAAUGGGCUCCAGAAGGUGGAGAUGGAGAAUCAGAUCUAUG	-1.48
CUCAAGUCCUGUGCUACACAUCGUAUGUACCGAAUCGGGUUGGGUUGGGGUUGGAAAGUAUUAUGUUACGCCGUUCGGAUCUGCACUUCC	0.344
AGUUACGGUAGCAGUUCUCAGAGCAGCAGCUAUGGGCAGCCCCAGAGUGGGAGCUACAGCCAGCAGCCUAGCUAUGGUGGACAGCAGCAA	-1.21
UGUGCUACACAUCGUAUGUACCGAAUCGGGCCCCCCCGGGGCCCCCCCGGGGCCCCCCCGGGGAAAGUAUUAUGUUACGCCGUUCGGAUC	-2.21
AAGUCCUGUGCUACACAUCGUAUGUACCGAAUCGGGGUGGGGAGGGGUUUUUGGGGAAAGUAUUAUGUUACGCCGUUCGGAUCUGCACUU	1.08
GUCCUGUGCUACACAUCGUAUGUACCGAAUCGGGUUUUUUUGGGUUUUUUUGGGUGGGAAAGUAUUAUGUUACGCCGUUCGGAUCUGCAC	0.352
UAACUUUAGAGGAGGAUCUGAUGGAUAUGGCAGUGGACGUGGAUUUGUGGAUGGCUAUAAUGGGUAUGGAGGAGGACCUGGAGGUGGCAA	0.397
UCCUCAAGUCCUGUGCUACACAUCGUAUGUACCGAAUCGGAAAGGUGGAGGAAAGUAUUAUGUUACGCCGUUCGGAUCUGCACUUCCAGC	-0.53
AGUCCUGUGCUACACAUCGUAUGUACCGAAUCGGGGAAAAAGGGGUGGGGUUUGGGGAAAGUAUUAUGUUACGCCGUUCGGAUCUGCACU	0.651
UGGGAGGUGGAUUUUGUUUUUUUUUUUAGCUCAUUUCCAGGGGUGGGAAUUUUUUUUUAAUAUGUGUCAUGAAUAAAGUUGUUUUUGAAA	0.31
UAACUUUAGAGGAGGAUCUGAUGGAUAUGGCAGUGGACGUGGAUUUGGGGAUGGCUAUGAUGGGUAUGGAGGAGGACCUGGAGGUGGCAA	0.191
UAACUUUAGAGGAGGAUCUGAUGGAUAUGGCAGUGGACGUGGAUUUGGGGAUGGCUAUAAUGGAUAUGGAGGAGGACCUGGAGGUGGCAA	0.168

Set 3 — method: RNA Bind-n-Seq; form: RNA; sample: in vitro; tested at: 365 nM; baseline: no-protein control; reading: higher = stronger binding
Target: RNA binding protein fox-1 homolog 2, RRM domain, GST-SBP tag (RBFOX2, Homo sapiens, UniProt O43251-10, residues 100-194)
Setting: natural RNA segment, single round, ends assumed
Shared flanks, not repeated: GGGAGUUCUACAGUCCGACGAUC … UGGAAUUCUCGGGUGCCAA
Residues (chain): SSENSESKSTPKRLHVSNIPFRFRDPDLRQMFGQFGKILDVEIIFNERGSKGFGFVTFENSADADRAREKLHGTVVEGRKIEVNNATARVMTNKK
Strand	RBNS enrichment (R)
AACACUACUGACUUAGACUGCUGACUGCCAGAGGUAGCUACCCUCAUGCCAUCGCCAUGACCCCCCCUGGCAUGCCACCUCAGGGGCAUGCACCUUCAAGUGCCUUUCAC	0.505
UUAUGAUAGAUAUGCACAUCAAAGCCUUUACCAGUAUCUUCCUGUAUUCCGUAUCAGAUUGCAAAGACGGAAUGUUACUAUUUUAUCAGCAAGGUAUUAAAAUGCAUUUA	2.3
CCUUAGACACCAAAUCCUUGCCUCUGGAGUGUAGCCACACACAACACAGAGAGUAACUGAAGCCUAUCUUAAGCAAAGAGAAACCACCCGUCCACUCUGGGGCUGCCCUA	0.71
UAUCCACUGCCCUAAAGAUUUAGACAUCCAUCACAGACUCUGCAGUGGUGUUUCUACUCCAGUGAGGUACUUUCUACCAUGGUGUGCCUUUUGCUGUGAGUGACUUAACA	0.334
UUCUAGGGGCAAAAGCCUUUUGUAGAAACCUGCACACUGCAUUCCAUCUGGGUUUUAAGUUCAGAUGUGAACAUUUUUUAGUGCUUCUUUUUCUUUUACUUAAUGAACAU	0.311
GUCUUCAAAUACCUUGAAAAAAAAUAGACUGUAUGUUGAAAAUUGUAUUGAAAUAAAGUAGAAAAUGUUCGGUAUCAUAUUUGUAACUAUCAACUUUUAAAAACAUUUGA	0.948
UUUCUGUUAAUAUAUAGAAAAAUACACAGGAGAACAUGCAGAUACAUGUAAAUAUCUACAUACAGGGAUAUUUGUAUGUGUGGUUGUGAAACCCAUACACAAGUGGAUUU	0.308
GCGUGGCCGUGUCUGUGUAUUUCUACGUGUGUCGCUCUUCAGAAGCAACCUAGUUCCUGGGGCAGCUGGACUUUGCAUGUUAGUGUGAGCCCCCAGCCCCCUGCCCGCCG	1.98
CCACCGCGUCUUGUCUGCAGCUUCUUGGCCAAUGUAGUAAUGCUUUUAGUAGAGUAAUAGGUAGUAUCAGUUUGGAUUCUUAUUGUUAUCACCUAUGUACAAUGGAGAGG	0.368
UGGGAGACUCACCCCACACGCCCUCCCCAGGGCACGUGCUGGUGUUUCCUCACGCUGGUUUCUCUGGUUUGGGGCUCCACGGCCAAGUCCUUGUUGGCUGAGGGCAGGAC	0.248
UACAUUAGCUAAUACUAACCACAUAGAAUAUCAGACUUAGAUACGUGAAUAAGGAUCCUGUGGGCACUGCUGGGUCCACUCUGCAAAUGCCAAGACUAUCAAAGGAACGU	0.372
AUCCUGAACCUCGUACUUCACCUAAUGUUAGGGGCUUGCUCGUCUGCACAGGACUUAUUAACAAGUUAACUCCCAGCCGGCCACUGUGUGCCCUGUACCCUUGCCUCUUC	0.347

Set 4 — method: EMSA with sequencing; form: double-stranded DNA, one strand shown; sample: in vitro; tested at: 10 and 20 nM; baseline: negative control set to 0; reading: higher = stronger binding
Target: Hepatocyte nuclear factor 3-alpha (Foxa1, Mus musculus, UniProt P35582, residues 1-468, full length assumed)
Setting: whole designed probe, mean of two concentrations, ends assumed
Shared flanks, not repeated: GTGAGCGGTGCCCATTGATGGGGAAC … TTTCACTGGGATCGTGGGGAC
Construct (chain): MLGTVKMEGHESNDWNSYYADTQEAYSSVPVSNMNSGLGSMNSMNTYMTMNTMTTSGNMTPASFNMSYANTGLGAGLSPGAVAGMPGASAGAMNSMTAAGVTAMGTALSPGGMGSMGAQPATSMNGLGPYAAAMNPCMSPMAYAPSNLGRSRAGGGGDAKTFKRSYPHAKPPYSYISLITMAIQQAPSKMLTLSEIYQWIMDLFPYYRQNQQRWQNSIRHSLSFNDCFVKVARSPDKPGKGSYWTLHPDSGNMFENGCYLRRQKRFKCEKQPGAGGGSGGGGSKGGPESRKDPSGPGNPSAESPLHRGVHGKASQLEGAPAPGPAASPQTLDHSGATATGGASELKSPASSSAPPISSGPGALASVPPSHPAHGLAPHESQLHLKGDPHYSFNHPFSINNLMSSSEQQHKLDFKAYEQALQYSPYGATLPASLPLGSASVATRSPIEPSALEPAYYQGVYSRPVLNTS
Strand	normalised bound fraction [ratio]
TCTTCTGTTGATTTATTCAGAGATATCTAGTGTCTATATGCAAGCAATATATTAGTTGCGAAGTGTCTAGGAACAGTGAAAGACACAAGTCTCCTGTTTACTTAGATTATGCAGACTATTGTGAAAGAAAGGGACTGAAAGGAGTTCACTATACCGTAAAGGTAGTGTGGCGCAAGGTGAATGTGAGTCTGTA	0.378
AAAGAGAAAAATAAATATCATCATGGACTTTAATGTGCACAGAAAATAAAATGTTCAATAAAAAATATTAATTATTTCTAGTTTCATGCTTTCTTGTTTACACAGGTAATATATTTCAAAATATTTTATTTACCTTTAAAATGAAAATACTAAAAAATGTATGAGAAAAGAATAGAGTAAAGTCAAGATGCTT	0.469
TTAACTTAGGTAATTGAATATTTAATTTATTGATATTCTTAAAATGTTTCTTTCCAAACAGACTACTTTTTTTCAGTTTGATCTTCTTTCAAATGTAATCTTGCAGTTTTTTTGTTTCTGAATTTTTATATTAATTGCAGTTTATTAATCAATATTGATAAGCATTTCATGGGTATCAAGACCATTTGATTTG	0.0979
ATCTTCCCCCTCTTCCTTGCCCCACCAGCTCACCTACGGGGGTTATTTGCAGATAGGAAAATAAATAAAGCCGGCATTCGTTAACCCTCTTCACGCGCATACTGCTGTTTGCTCTGCATGAATCATGGTCCTTACGCGAGGCGTGGCTCCGGGAGAGCAAAGCACCGTGTCAGGCGCATGATCCGGGCTCGCC	0.351
TTTAGTACTTTAAAATTTTCCAAAGTGCTTTTCCTTGTCTTATTATAACAATTGCCAGCATTTGGTCAGCACTCTAGAGGTTATAAAGTACTTTGTGTACACTGTCTCCTAAGTCAACTCAGCAATGCTGTGGGTTATTATTACTTGACTCATTTTGCAGGCAAGGAAGCTAAGGTTCAGGAATGCTAAATGA	0.251
CACCAAACTTGACCTGCTCTCCACCCTCGGATCTAGTCAGGCTAGACAACACTGCTGTCAACAAATTTTAGGATCTCTGTGGCTGAACCTGGAAGATTACTTTTCATGCACACAGAGGCTACTGTGGATCTAGAGCCTCTCCATGGAAGCTCCCTGCAGATGGGTGGCTCCAGTCTCCAAGGGCTTCCATCTT	-0.0245
TTCCAAATACTCTTTTGAATTGAAAATGGTGAGAAGCGTAAATTATATGACACTGGAAACGTCTTTCCTATTTCATTTACGATCAAGAACTACAGATTGCATTTGTATTATGTAGCTACTGTAGAAATTGACCAAATGTTGACAGACAAAAGGCACATGCACCCTGACAAGAGCCAAAACAATCTGGAAGGAA	0.0043
TCTAATCCATACCAAGGATTCCCATGGGGAAACTGTTATCTCTCAACTCAGTGAGGGCTATTGACAAAGACCAGTGCTCTTTCTTCTCTGTAGGTAAACAGAGACTCTTGCAAGCCTGAGGGAGAAAATACAGTATATCTAAGAGTTAAGACCTCCCAGCTTCACATTCTGTTATAGCAGCTGCTTCATGCCA	0.247

Some of these lines once more (set 3):
Strand	RBNS enrichment (R)
GCGUGGCCGUGUCUGUGUAUUUCUACGUGUGUCGCUCUUCAGAAGCAACCUAGUUCCUGGGGCAGCUGGACUUUGCAUGUUAGUGUGAGCCCCCAGCCCCCUGCCCGCCG	1.98
UUAUGAUAGAUAUGCACAUCAAAGCCUUUACCAGUAUCUUCCUGUAUUCCGUAUCAGAUUGCAAAGACGGAAUGUUACUAUUUUAUCAGCAAGGUAUUAAAAUGCAUUUA	2.3
UUCUAGGGGCAAAAGCCUUUUGUAGAAACCUGCACACUGCAUUCCAUCUGGGUUUUAAGUUCAGAUGUGAACAUUUUUUAGUGCUUCUUUUUCUUUUACUUAAUGAACAU	0.311
AACACUACUGACUUAGACUGCUGACUGCCAGAGGUAGCUACCCUCAUGCCAUCGCCAUGACCCCCCCUGGCAUGCCACCUCAGGGGCAUGCACCUUCAAGUGCCUUUCAC	0.505
UGGGAGACUCACCCCACACGCCCUCCCCAGGGCACGUGCUGGUGUUUCCUCACGCUGGUUUCUCUGGUUUGGGGCUCCACGGCCAAGUCCUUGUUGGCUGAGGGCAGGAC	0.248
CCUUAGACACCAAAUCCUUGCCUCUGGAGUGUAGCCACACACAACACAGAGAGUAACUGAAGCCUAUCUUAAGCAAAGAGAAACCACCCGUCCACUCUGGGGCUGCCCUA	0.71
UACAUUAGCUAAUACUAACCACAUAGAAUAUCAGACUUAGAUACGUGAAUAAGGAUCCUGUGGGCACUGCUGGGUCCACUCUGCAAAUGCCAAGACUAUCAAAGGAACGU	0.372
